# Measurements of several laboratories.
# Lines come from different studies, so protocols differ. “And” joins repeats or separate records; there may be more than shown. ± gives the spread as reported.
# DCPS: m7GpppX diphosphatase (DCPS, Homo sapiens, UniProt Q96C86)
# CASP8: Caspase-8 (CASP8, Homo sapiens, UniProt Q14790)
# CASP10: Caspase-10 (CASP10, Homo sapiens, UniProt Q92851)
Structure (SMILES),target,test,test system,conditions,scale,endpoint,result
C[C@@H](Nc1nc(N[C@H](C)C(F)(F)F)nc(-c2cccc(Cl)n2)n1)C(F)(F)F,"IDH1 (Homo sapiens, UniProt O75874, R132C)",item: 2-hydroxyglutarate,HT-1080,,,maximal inhibition,91%
CCCCCC=CC=C1C(=O)C=CC1CC=CCCCC(=O)O (centres unmarked),"Exportin-2 (Homo sapiens, UniProt P55060)","competitive isoTOP-ABPP, item: CSE1L cysteine peptide",Ramos soluble proteome,"100 µM, added: iodoacetamide probe","relative to: DMSO over compound-treated, higher = stronger cysteine blockade",isoTOP-ABPP competition ratio,1.5
Cc1cn(CC(=O)N(CC(=O)N[C@H]2COC[C@@H]2N(CC(=O)NCCOCCOCC(N)=O)C(=O)Cn2cnc3c(N)ncnc32)[C@H]2COC[C@@H]2NC(=O)CN(C(=O)Cn2cnc3c(N)ncnc32)[C@H]2COC[C@@H]2NC(=O)CN(C(=O)Cn2cnc3c(=O)[nH]c(N)nc32)[C@H]2COC[C@@H]2NC(=O)CN(C(=O)Cn2cc(C)c(=O)[nH]c2=O)[C@H]2COC[C@@H]2NC(=O)CN(C(=O)Cn2cnc3c(=O)[nH]c(N)nc32)[C@H]2COC[C@@H]2NC(=O)CN(C(=O)Cn2cc(C)c(=O)[nH]c2=O)[C@H]2COC[C@@H]2NC(=O)CN(C(=O)Cn2cnc3c(N)ncnc32)[C@H]2COC[C@@H]2NC(=O)CN(C(=O)Cn2cnc3c(=O)[nH]c(N)nc32)[C@H]2COC[C@@H]2N)c(=O)[nH]c1=O,complementary DNA,"duplex formation, UV melting curve fit",PBS,1 µM,,ΔH,-75.2 ± 0.8 kcal/mol
Cc1cnc2nc1Nc1cccc(c1)COC/C=C/COCc1cc(ccc1OCCN1CCOCC1)N2,"EGFR (Homo sapiens, UniProt P00533)",,,concentration not given,,percent of control,77%
C#CCOC(=O)[C@@]1(C)C=C(C(=O)OC(C)(C)C)C(=O)CC1,"MAPK1 (Homo sapiens, UniProt P28482)","enzyme activity, D-SENSOR",,"0.1829 µM, mean of replicates",,normalized kinase activity,1.06
CC(C=CC=C(C)C=CC1=C(C)CCCC1(C)C)=CC=O,"Rhodopsin (RHO, Homo sapiens, UniProt P08100, P23H)","ER retention, immunostaining co-localization, item: opsin with calnexin",COS-7 transfected P23H,30.00 µM,,Pearson correlation coefficient,0.57
C[n+]1cn([C@@H]2O[C@H](COP(=O)([O-])OP(=O)(O)CP(=O)(O)OP(=O)(O)OC[C@H]3O[C@@H](n4cnc5c(=O)[nH]c(N)nc54)[C@H](O)[C@@H]3O)[C@@H](O)[C@H]2O)c2nc(N)nc(O)c21,DCPS,"substrate, HPLC",,"0.04 mM, 1 h, 37 °C",,hydrolysis,0%
N[C@H]1CC[C@H](Nc2nccc(-c3cccnc3Oc3ccc(NC(=O)NC4CC4)c4ccccc34)n2)CC1,"PARP1 (Homo sapiens, UniProt P09874)",kinobead competition pulldown,HEK293/HCT116 lysate mixture,"10 µM, 1 h, 4 °C",lower = stronger competition,log2 LFQ intensity,23.3 and 23.4 and 23.7 and 23.8
C=C1C(=O)C2(C(=O)N3CCN(c4ccc(Br)cc4)CC3)CC(=O)CC1C2 (racemic),"PTPN11 (Homo sapiens, UniProt Q06124)","phosphatase activity, irreversible inhibitor",,added: pNPP,,kinact/KI,367 M⁻¹ s⁻¹
C=CC(=O)N1CCCC(n2c(=O)c3ncccc3n(Cc3ccc(Oc4ccccc4)cc3)c2=O)C1 (centres unmarked),"Secernin-1 (SCRN1, Homo sapiens, UniProt Q12765)","thermal proteome profiling, item: SCRN1",,treated,,melting temperature,45 °C and 50.4 °C
CC(=O)N1CCC[C@H]1C(=O)N[C@H](C(=O)NCC(=O)N[C@@H](CC(=O)O)C(=O)COC(=O)c1c(C)cccc1C)C(C)(C)C,CASP8,"enzyme activity, inhibitor",,,,kinact/KI,310000 M⁻¹ s⁻¹
Cn1cc(-c2cc(N3CCCCS3(=O)=O)ccc2N[C@H]2CC[C@H](C)CC2)c2cc[nH]c2c1=O (stereo in doubt),"ATAD2B (Homo sapiens, UniProt Q9ULI0)","binding, competition with immobilised ligand",,1 µM,,remaining binding,99%
CC(=O)N[C@@H](CC(C)C)C(=O)N[C@@H](CCC(=O)O)C(=O)N[C@@H](Cc1c[nH]cn1)C(=O)N[C@@H](CC(=O)O)C(=O)COC(=O)c1c(C)cccc1C,CASP8,"enzyme activity, inhibitor",,,,kinact/KI,1.56e+06 M⁻¹ s⁻¹
C[n+]1cn(C2OC(COP(=O)(O)OP(=O)([O-])C(Cl)(Cl)P(=O)(O)OP(=O)(O)OCC3OC(n4cnc5c(=O)[nH]c(N)nc54)C(O)C3O)C(O)C2O)c2nc(N)nc(O)c21 (centres unmarked),DCPS,"substrate, HPLC",,"concentration not given, 15 min",,hydrolysis,0%
CC[C@H](C)[C@@H]1NC(=O)[C@H](Cc2ccccc2)NC(=O)[C@H](CCC(=O)O)NC(=O)[C@H](CCCNC(=N)N)NC(=O)CNC(=O)[C@@H](NC(=O)[C@H](CC(C)C)NC(=O)[C@H](CCCNC(=N)N)NC(=O)[C@@H](NC(=O)CNC(=O)[C@H](Cc2ccc(O)cc2)NC(=O)[C@@H]2CCCN2C(=O)[C@H](C)NC(=O)[C@H](C)NC(=O)[C@@H](N)CCCNC(=N)N)C(C)C)CSSC[C@@H]2NC(=O)[C@@H](NC(=O)[C@H](CO)NC(=O)[C@H](CO)NC(=O)[C@H](CO)NC(=O)[C@H](CC(C)C)NC(=O)CNC(=O)[C@H](C)NC(=O)[C@H](CC(C)C)NC(=O)[C@@H](NC(=O)[C@@H](N)CC(=O)O)C(C)C)CSSC[C@H](NC(=O)CNC(=O)[C@H](Cc3c[nH]c4ccccc34)NC(=O)[C@H](CCCCN)NC2=O)C(=O)N[C@@H](CO)C(=O)N[C@@H](CCCCN)C(=O)N[C@@H](CO)C(=O)N[C@@H](CCC(=O)O)C(=O)N[C@@H]([C@@H](C)CC)C(=O)N[C@@H](CO)C(=O)N[C@@H](CO)C(=O)N[C@@H](CC(C)C)C(=O)N[C@H](C(=O)O)CSSC[C@@H](C(=O)NCC(=O)NCC(=O)N[C@@H](CO)C(=O)N[C@@H](CCCNC(=N)N)C(=O)N[C@@H](Cc2c[nH]c3ccccc23)C(=O)O)NC(=O)[C@H]([C@@H](C)O)NC(=O)[C@H](Cc2ccccc2)NC(=O)[C@H]([C@@H](C)CC)NC(=O)[C@H](C(C)C)NC(=O)[C@H](C)NC(=O)[C@H](CCCNC(=N)N)NC1=O,"RXFP4 (Homo sapiens, UniProt Q8TDU9, W279A)",,,"W279A mutant, unit not given",relative to: wild type,ΔpEC50,-0.307 and -0.142 and -0.965
C/C(=C/CC[C@@H](C)[C@H]1CC[C@@]2(C)C3=CC[C@H]4C(C)(C)C(=O)CC[C@]4(C)C3=C[C@@H](O[C@@H]3O[C@H](CO)[C@@H](O)[C@H](O)[C@H]3O)[C@]12C)C(=O)O,"TAS2R14 (Homo sapiens, UniProt Q9NYV8)","agonist, calcium mobilisation",HEK cells with Galpha16gust44,pH 7.4,,threshold concentration,1 µM
Cc1cc(=O)oc2cc(NC(=O)CCCCCCCC(=O)NO)ccc12,"HDAC8 (Homo sapiens, UniProt Q9BY41)",ITC,Tris-HCl buffer,288 K,,TΔS°,4.6 kcal/mol
CC(O)CNc1cc(=O)oc2ccccc12 (centres unmarked),"ADRA1A (Homo sapiens, UniProt P35348)","intracellular Ca2+ mobilization, agonist",COS-7,500 µM,relative to: 3 µM ionomycin,agonist activity,13.2 ± 1.16%
CC(=O)N1C[C@H](O)C[C@H]1C(=O)N[C@@H](CC(C)C)C(=O)N[C@@H](C)C(=O)N[C@@H](CC(=O)O)C(=O)COC(=O)c1c(C)cccc1C,CASP10,"enzyme activity, inhibitor",,,,kinact/KI,177000 M⁻¹ s⁻¹
CC[C@H](C)[C@H](NC(=O)[C@@H](NC(=O)[C@@H](NC(=O)[C@@H](NC(=O)[C@@H](N)CCCCN)C(C)C)C(C)C)C(C)C)C(=O)N[C@H](C(N)=O)[C@@H](C)O,"Microtubule-associated protein tau, PHF6* peptide (MAPT, Homo sapiens, UniProt P10636)","fibril formation, ThT fluorescence",,"5-fold of peptide, 240 min, pH 7.4, added: Ac-PHF6* 25 µM, heparin",relative to: untreated,ThT fluorescence,1 ± 1%
CC(=O)N[C@@H](Cc1ccc(I)cc1)C(=O)N[C@@H](CCC(=O)O)C(=O)N[C@H](C(=O)N[C@@H](CC(=O)O)C(=O)COC(=O)c1c(C)cccc1C)[C@@H](C)O,CASP8,"enzyme activity, inhibitor",,,,kinact/KI,796000 M⁻¹ s⁻¹
O=C(c1ccc(C(=O)N2CCC(N3CCCCC3)CC2)cc1)N1CCC(N2CCCCC2)CC1,"Lethal(3)malignant brain tumor-like protein 3 (Homo sapiens, UniProt Q96JM7)",FRAP,human cells,1 µM,,diffusion coefficient,0.0357 µm2/s
CCCCCC(O)/C=C/C=O (centres unmarked),"FAS-associated death domain protein (FADD, Homo sapiens, UniProt Q13158)",competitive isoTOP-ABPP,Ramos soluble proteome,"100 µM, added: iodoacetamide probe","relative to: DMSO over compound-treated, higher = stronger cysteine blockade",isoTOP-ABPP competition ratio,1.7
O=c1c(-c2ccc(Cl)c(CN3CCOCC3)c2)coc2cc(O)ccc12,"HSD3B1 (Homo sapiens, UniProt P14060)",[3H]-DHEA conversion,LNCaP,"0.1 µM, normalized to protein, unit not given",relative to: vehicle,DHEA metabolism,2.55
CC(=O)N[C@@H](CC(=O)O)C(=O)N[C@@H](CC(C)C)C(=O)N[C@@H](C)C(=O)N[C@@H](CC(=O)O)C(=O)COC(=O)c1c(C)cccc1C,CASP8,"enzyme activity, inhibitor",,,,kinact/KI,246000 M⁻¹ s⁻¹
Nc1ncc2c(n1)-c1c([nH]c3ccc(C4=CCOCC4)cc13)CCC2,"Tyrosine-protein kinase ABL1, phosphorylated (ABL1, Homo sapiens, UniProt P00519, F317L)","binding, competition with immobilised ligand",,1 µM,,remaining binding,100%
CC[C@H](C)[C@H](NC(=O)[C@@H](NC(=O)[C@H](CCCCN)NC(=O)[C@@H](NC(=O)CNC(=O)[C@@H](N)CCCNC(=N)N)[C@@H](C)O)C(C)C)C(=O)N[C@@H](CC(C)C)C(=O)N[C@@H](Cc1c[nH]cn1)C(=O)N[C@@H](CC(C)C)C(N)=O,"MAPT (Homo sapiens, UniProt P10636)","fibril formation, ThT fluorescence",,"5-fold of tau, at plateau, added: wild-type tau 10 µM, heparin",relative to: untreated,ThT fluorescence,3 ± 3%
CC[C@H](NC(=O)[C@H](CC(C)C)NC(=O)[C@H](CC(=O)O)NC(C)=O)C(=O)N[C@@H](CC(=O)O)C(=O)COC(=O)c1c(C)cccc1C,CASP10,"enzyme activity, inhibitor",,,,kinact/KI,137000 M⁻¹ s⁻¹
O=C1c2sc(-c3ccc(N4CCC(F)C4)nc3F)nc2CCN1c1cccnc1 (centres unmarked),"TAR DNA-binding protein 43, aggregated (TARDBP, Homo sapiens, UniProt Q13148)",saturation autoradiography,"human, FTLD-TDP type A brain sections",4.77 nM,,specific binding,62.4 nM

# A few entries again:
Structure (SMILES),target,test,test system,conditions,scale,endpoint,result
CC(O)CNc1cc(=O)oc2ccccc12 (centres unmarked),"ADRA1A (Homo sapiens, UniProt P35348)","intracellular Ca2+ mobilization, agonist",COS-7,500 µM,relative to: 3 µM ionomycin,agonist activity,13.2 ± 1.16%
CC(=O)N1C[C@H](O)C[C@H]1C(=O)N[C@@H](CC(C)C)C(=O)N[C@@H](C)C(=O)N[C@@H](CC(=O)O)C(=O)COC(=O)c1c(C)cccc1C,CASP10,"enzyme activity, inhibitor",,,,kinact/KI,177000 M⁻¹ s⁻¹
CC[C@H](C)[C@H](NC(=O)[C@@H](NC(=O)[C@@H](NC(=O)[C@@H](NC(=O)[C@@H](N)CCCCN)C(C)C)C(C)C)C(C)C)C(=O)N[C@H](C(N)=O)[C@@H](C)O,"Microtubule-associated protein tau, PHF6* peptide (MAPT, Homo sapiens, UniProt P10636)","fibril formation, ThT fluorescence",,"5-fold of peptide, 240 min, pH 7.4, added: Ac-PHF6* 25 µM, heparin",relative to: untreated,ThT fluorescence,1 ± 1%
CC(=O)N[C@@H](Cc1ccc(I)cc1)C(=O)N[C@@H](CCC(=O)O)C(=O)N[C@H](C(=O)N[C@@H](CC(=O)O)C(=O)COC(=O)c1c(C)cccc1C)[C@@H](C)O,CASP8,"enzyme activity, inhibitor",,,,kinact/KI,796000 M⁻¹ s⁻¹
